Measurements pooled from the literature.
Numbered parts are unrelated; each lists some results of a single study.

Block 1
Target: PABPC1L2, full length, GST fusion (mouse, UniProt A0ABA7IW68)
Method: RNAcompete
Molecule type: RNA
Matrix: in vitro
Tested at: 20 nM
Setting: 7-mer, probes averaged, single round
Reference: mean of 7-mers
Direction: higher = stronger binding
Target sequence (chain): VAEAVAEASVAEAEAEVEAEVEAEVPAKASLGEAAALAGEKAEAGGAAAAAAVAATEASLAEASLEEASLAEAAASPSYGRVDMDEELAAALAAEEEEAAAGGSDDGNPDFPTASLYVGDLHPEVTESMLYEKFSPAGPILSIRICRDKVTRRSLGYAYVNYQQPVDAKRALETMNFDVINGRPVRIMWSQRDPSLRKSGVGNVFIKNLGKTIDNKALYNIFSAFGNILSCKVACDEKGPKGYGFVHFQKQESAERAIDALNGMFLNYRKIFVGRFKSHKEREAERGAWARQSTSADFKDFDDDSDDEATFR
Oligonucleotide	7-mer Z-score
AUUGUGC	-0.258
ACUGAGC	-0.0355
GAAAAAU	12.1
GAGCCCA	-0.228
AACUAUC	-0.0826
GUCUAUU	-0.353
AGACGAC	-0.05
GACCCGG	-0.237
GCUAGUG	-0.162
GUUUACC	-0.382
GUGGUGG	-0.0935
AGCUGGA	0.037
ACAUCUC	-0.282
GGGAGGA	0.39
AUGUUAG	-0.141
AGCUGGC	-0.0264
ACAGGAU	0.164
GAUAUGC	-0.177

Block 2
Target: Ras GTPase-activating protein-binding protein 1, full length (G3BP1, Homo sapiens, UniProt Q13283)
Chain of UniProt Q13283 (whole entry, looked up): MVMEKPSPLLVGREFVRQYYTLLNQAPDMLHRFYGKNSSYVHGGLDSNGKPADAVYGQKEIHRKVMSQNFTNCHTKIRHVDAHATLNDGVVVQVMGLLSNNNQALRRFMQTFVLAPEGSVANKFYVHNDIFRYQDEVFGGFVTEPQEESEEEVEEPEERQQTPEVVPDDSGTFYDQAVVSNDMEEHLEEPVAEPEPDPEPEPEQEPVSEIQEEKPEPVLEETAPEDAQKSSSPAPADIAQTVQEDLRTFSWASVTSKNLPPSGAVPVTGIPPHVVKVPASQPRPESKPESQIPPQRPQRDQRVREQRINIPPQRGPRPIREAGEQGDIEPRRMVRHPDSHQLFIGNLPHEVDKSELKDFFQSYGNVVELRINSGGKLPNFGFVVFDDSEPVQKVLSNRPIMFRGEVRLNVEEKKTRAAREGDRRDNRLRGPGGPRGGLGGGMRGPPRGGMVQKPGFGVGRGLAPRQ
Method: RNA Bind-n-Seq
Molecule type: RNA
Matrix: in vitro
Tested at: 200 nM
Setting: whole 134-nt RNA, ends assumed
With: 150 mM KCl
Reference: input library
Direction: higher = stronger binding
Shared flanks, not repeated: GGGAGUUCUACAGUCCGACGAUC … UGGAAUUCUCGGGUGUCAAGG
Oligonucleotide	log2 enrichment
GUCCUGUGCUACACAUCGUAUGUACCGAAUCGGGAAAAAGGGGAAAAAGGGGAAAAAGGAAAGUAUUAUGUUACGCCGUUCGGAUCUGCA	-0.32
CCUGUGCUACACAUCGUAUGUACCGAAUCGGGGAAAAAAAGGGGUUUGGGGUUUUUGGGGAAAGUAUUAUGUUACGCCGUUCGGAUCUGC	0.394
AGUCCUGUGCUACACAUCGUAUGUACCGAAUCGGGGCCCGGGGCCCGGGGCCCGGGGAAAGUAUUAUGUUACGCCGUUCGGAUCUGCACU	-1.25
GCAGGAAGUAAAAACAAAUGGAAAUGCUUCGGAUAGUGGCAGGGGUGGGGGUUGCUAAGGAAUGGGUGGGAUGGGAGUGGGUAAAGAGUU	0.965
GCAAAAAGUAAAAACAAAUGGAAAUGCUUCGGAUAGUGGCAGGGGUGGGGGUUGCUAAGGAAAGGGUGGGAUGGGAGUGGGUAAAGAGUU	1.17
UCCUGUGCUACACAUCGUAUGUACCGAAUCGGGGAAAAAAAGGGGUUUUUGGGGAGGGGAAAGUAUUAUGUUACGCCGUUCGGAUCUGCA	0.705
ACCAUGCAGGUGGGCAUCUUUGGGAAGUGGGGCAAGGGGGGGAUAGGGAGGGGGGUAACACUUUGGGAACAAAAGGUCCCAGGUCGUUUC	1.17
CCUCAAGUCCUGUGCUACACAUCGUAUGUACCGAAUCGGGUGGGUGGGAGGGAAAGUAUUAUGUUACGCCGUUCGGAUCUGCACUUCCAG	0.81
GUCCUGUGCUACACAUCGUAUGUACCGAAUCGGGGUUUUUGGGGUGGGGUUUUUGGGGAAAGUAUUAUGUUACGCCGUUCGGAUCUGCAC	0.254
AAGUCCUGUGCUACACAUCGUAUGUACCGAAUCGGGUUUUUGGGAAAAAGGGAGGGAAAGUAUUAUGUUACGCCGUUCGGAUCUGCACUU	0.226
GUCCUGUGCUACACAUCGUAUGUACCGAAUCGGGGUUUGGGGAAAGGGGUUUUUGGGGAAAGUAUUAUGUUACGCCGUUCGGAUCUGCAC	0.433
AGUCCUGUGCUACACAUCGUAUGUACCGAAUCAAACCCCCCCAAAUUUAAACCCAAAAAAGUAUUAUGUUACGCCGUUCGGAUCUGCACU	-0.252
AAGUCCUGUGCUACACAUCGUAUGUACCGAAUCGGGGAGGGGAGGGGAAAAAGGGGAAAGUAUUAUGUUACGCCGUUCGGAUCUGCACUU	0.676
UGGCCCUGGAGGCAUGCGGGGAGGAAGAGGUGGCCUCAUGGAUCGUGGUGGUCCCGGUGGAAUGUUCAGAGGUGGCCGUGGUGGAGACAG	0.105

Block 3
Target: RNA binding protein fox-1 homolog 2, RRM domain, GST-SBP tag (RBFOX2, Homo sapiens, UniProt O43251-10, residues 100-194)
Method: RNA Bind-n-Seq
Molecule type: RNA
Matrix: in vitro
Tested at: 365 nM
Setting: natural RNA segment, single round, ends assumed
Reference: no-protein control
Direction: higher = stronger binding
Shared flanks, not repeated: GGGAGUUCUACAGUCCGACGAUC … UGGAAUUCUCGGGUGCCAA
Target sequence (chain): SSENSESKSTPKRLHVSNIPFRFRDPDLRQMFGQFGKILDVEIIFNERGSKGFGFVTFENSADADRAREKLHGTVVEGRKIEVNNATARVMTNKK
Oligonucleotide	RBNS enrichment (R)
GUAGCAAUUUGCAUUUUAAAAUGCCUGAGCAUUUAUUAAGCUUCUUGGUAUUCACUUGGGUUUGAUAAUUGAUCUGAGCUACCUCAUUGAAUGUUUUUGGAAAGGUGUUU	1.17
UGGCCUGGAUGCUUCCUCUCCCUGUCUCUCCCUUGCCCCACAGCGGUUCCCUGACAGCAGACAAGGCAGCUCUGGGAGGUAGCUAGUAUCCAAUAACCCAGGGGUUUCCU	0.361
UGCUCUAUACAAAUUCAGCACCUUUGACUGGUUUUGAGUGUGCAUUUUCUUUUAGUGAUACUGUUACCAGUGGCAGUUUGCUUUACAGAGGGGGAGCCCAGGUGGGAGAG	0.309
UAUGCAAUCCUAAAGGACGAAACUCACCCAUGGGAGGCCGAAUUCUCCUUGGGAUGAAGAAAUUUCUCUUUCCCUGUCAUGAGUGUCCAGCCAGGGAGCAGGGAGGCAGU	0.456
CCUCCUGCAUUUGUUGAUACCACUAACAAAAUGCUUUGUAACAGACUUGCGGUUAAUUAUGCAAAUGAUAGUUUGUGAUAAUUGGUCCAGUUUUACGAACAACAGAUUUC	0.27
GGUUUCUUCUAAUCAAGCUUCCACCCUGCAAUGGCUGUCGUGCCAUCUUCCUUCUGUGUUUUACUCGGCUCAUUGCUUCUCUGGAGACAAAUGCAAUGCUUCCUACCCCC	0.467
UGGUCACCCCCGGGCCCAGCCUGGCUGGCGAGAAACAAACACGGUUUGAGAGGCUGUGGCACACUGAGGACCACACAGAUGGAGGCAGCCAAGUGAGGUCCCUGGAGGUU	0.431
GCCAGCCAGUUCUGGGGAUUCAGAGGUGCAGGGAAGGGUUAGGGAAAAGGGGGCAAGGUUUUGGCAUUAGAUGCACUUAACCCGGCUUCCACCAGCUUCUUCCCCUCUUC	0.264
CAUGAACUAGUUCCAGAUCUGAAGCCCAGGUUAGGCAUGACAUUGCAGCCCCAACCCUACCUCAUCUGUGCUGAAAGACGCUGAAACUGCCUGGGAUGUUUUCGGGAACA	0.503
UGGACAUGUCUGAGCAGAGAAACCGUGGAAUAGAAUAUGGUGCGUGGGCUGCUAACAGCAAGAGGGAGCACUUGUCUUCAUCACAAGCAAGAUGAUGAGCACAGAGUGAG	1.69
UAUUCCUAUUCUUUGCCACCUUUUGGGUGUGGUGUCACCAGCCUGUUUAGCCAAGUAGCUUUGGGCAUAGGCUGCCCAAUCUGAGCAAACACCAGUGAGGCUCUAUUGAG	0.299
UUUUUUCAGUUAGAAGAAGGUUUUUAUGAGUUAAUUUUACCCAUAAAUAUUUCAGUAAUUUUGGAGUGGAAGUUGGGUUGCUAACAUCAGAGCUCAUGUUCAUGUUUUAG	0.416

Block 4
Target: Phosphate system positive regulatory protein PHO4, full length, GST-tagged (PHO4, Saccharomyces cerevisiae, UniProt P07270, residues 1-312)
Method: competition protein-binding microarray
Molecule type: double-stranded DNA, one strand shown
Matrix: in vitro
Tested at: 2 µM
Setting: whole 60-bp probe, lowest competitor level
With: Cbf1 competitor, 0.05 µM
Direction: higher = stronger binding
Shared flanks, not repeated: … GTCTTGATTCGCTTGACGCTGCTG
Target sequence (chain): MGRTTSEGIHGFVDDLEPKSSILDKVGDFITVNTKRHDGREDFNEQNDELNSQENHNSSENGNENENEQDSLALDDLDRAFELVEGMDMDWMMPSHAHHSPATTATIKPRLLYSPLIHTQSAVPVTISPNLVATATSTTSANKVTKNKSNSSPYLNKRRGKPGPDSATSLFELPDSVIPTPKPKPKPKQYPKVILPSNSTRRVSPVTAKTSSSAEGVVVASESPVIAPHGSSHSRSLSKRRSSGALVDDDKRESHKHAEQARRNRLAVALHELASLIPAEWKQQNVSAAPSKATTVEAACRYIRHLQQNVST
Oligonucleotide	fluorescence intensity
CGTCCTAGTGATTGTTGGGTGGGTGCCATGAGGAAG	7640 a.u.
ACTTCTCCATTCCGTCAGCTGATACTCTATTCGGTT	4120 a.u.
GAGGCTTTCGATTACCATGTGCAATCTGTCTATGAA	9450 a.u.
AAAGCGGTAATTTGATGCGTGGGTGCAGATATCTAT	8270 a.u.
CATACCCAACCTTGGATAGTGGGTGAAGATATTTGT	3790 a.u.
AAGACCTATTTCTCAGACGTGCTAATCTCCCGTCAA	5080 a.u.
CGGGGTTAAGTTTGGAGAGTGGGTGGCTTGCAGCAG	4520 a.u.
AAAGCGGTAATTTGTCACTACACTTCACATATCTAT	3410 a.u.
CATACCCAACCTTGTACGGTGGGTGAAGATATTTGT	3870 a.u.
AAAGCGGTAATTTTTCACGTGCGGTCAAATATCTAT	12900 a.u.
CAGAACGCCGCCTTCCCCGTGCGATGCAGGGTGCTA	8070 a.u.
GCCAAAGCGCAAGGCCGCGTGGACCACCAGGACGAA	8710 a.u.
CGGGGTTAAGTTTGACGTGTGGGTGGCTTGCAGCAG	6170 a.u.
GCAAACGACGAGCTTCACGTTCAGATTCCATTAGAA	5470 a.u.
TATAATCCTGGTCGGAACGTGCAAAATATGAGAACG	12500 a.u.
CTTCTCTTCTTCACCGGCGTGATGGGCTGCGTAACA	5930 a.u.
CCTATAACAGCAGTTGTCGTGATGGTTATAGATAAA	5020 a.u.
ATTTTTTTAAAGAATCGTGTGGTAAACAAGCTTCCA	5910 a.u.
GTCTTGTCTCATTGAGAGGTGGGTGTCCCCACTTCA	4520 a.u.
TGAAAAGTTACGGATCAGGCTTTAACCACCGTAGAC	2820 a.u.
CCGGCCCGGAATATACGCGTGGTCGCGCTCTTTCGG	9340 a.u.
AAATTACTAAGTTGGAAGGTGGGTGACGCCGTATGA	4610 a.u.
ATATATCATTGGTTCCACGTTCACTTCCCTTATTAC	11200 a.u.
CGTCCTAGCGATTGAATAGTGGGTGCCATGAGGAAG	6000 a.u.
TGAGGGTTATCCAAGCGCATGACAATAAATGAGCGG	6230 a.u.

Some of these lines once more (block 2):
Oligonucleotide	log2 enrichment
GUCCUGUGCUACACAUCGUAUGUACCGAAUCGGGGUUUGGGGAAAGGGGUUUUUGGGGAAAGUAUUAUGUUACGCCGUUCGGAUCUGCAC	0.433
GCAGGAAGUAAAAACAAAUGGAAAUGCUUCGGAUAGUGGCAGGGGUGGGGGUUGCUAAGGAAUGGGUGGGAUGGGAGUGGGUAAAGAGUU	0.965
GCAAAAAGUAAAAACAAAUGGAAAUGCUUCGGAUAGUGGCAGGGGUGGGGGUUGCUAAGGAAAGGGUGGGAUGGGAGUGGGUAAAGAGUU	1.17
UCCUGUGCUACACAUCGUAUGUACCGAAUCGGGGAAAAAAAGGGGUUUUUGGGGAGGGGAAAGUAUUAUGUUACGCCGUUCGGAUCUGCA	0.705
AAGUCCUGUGCUACACAUCGUAUGUACCGAAUCGGGUUUUUGGGAAAAAGGGAGGGAAAGUAUUAUGUUACGCCGUUCGGAUCUGCACUU	0.226
AGUCCUGUGCUACACAUCGUAUGUACCGAAUCAAACCCCCCCAAAUUUAAACCCAAAAAAGUAUUAUGUUACGCCGUUCGGAUCUGCACU	-0.252
GUCCUGUGCUACACAUCGUAUGUACCGAAUCGGGGUUUUUGGGGUGGGGUUUUUGGGGAAAGUAUUAUGUUACGCCGUUCGGAUCUGCAC	0.254
ACCAUGCAGGUGGGCAUCUUUGGGAAGUGGGGCAAGGGGGGGAUAGGGAGGGGGGUAACACUUUGGGAACAAAAGGUCCCAGGUCGUUUC	1.17
GUCCUGUGCUACACAUCGUAUGUACCGAAUCGGGAAAAAGGGGAAAAAGGGGAAAAAGGAAAGUAUUAUGUUACGCCGUUCGGAUCUGCA	-0.32
UGGCCCUGGAGGCAUGCGGGGAGGAAGAGGUGGCCUCAUGGAUCGUGGUGGUCCCGGUGGAAUGUUCAGAGGUGGCCGUGGUGGAGACAG	0.105
